Results of several laboratories.
Target: Dipeptidyl peptidase 4 (DPP4, Homo sapiens, UniProt P27487)
UniProt P27487, sequence (whole entry, looked up): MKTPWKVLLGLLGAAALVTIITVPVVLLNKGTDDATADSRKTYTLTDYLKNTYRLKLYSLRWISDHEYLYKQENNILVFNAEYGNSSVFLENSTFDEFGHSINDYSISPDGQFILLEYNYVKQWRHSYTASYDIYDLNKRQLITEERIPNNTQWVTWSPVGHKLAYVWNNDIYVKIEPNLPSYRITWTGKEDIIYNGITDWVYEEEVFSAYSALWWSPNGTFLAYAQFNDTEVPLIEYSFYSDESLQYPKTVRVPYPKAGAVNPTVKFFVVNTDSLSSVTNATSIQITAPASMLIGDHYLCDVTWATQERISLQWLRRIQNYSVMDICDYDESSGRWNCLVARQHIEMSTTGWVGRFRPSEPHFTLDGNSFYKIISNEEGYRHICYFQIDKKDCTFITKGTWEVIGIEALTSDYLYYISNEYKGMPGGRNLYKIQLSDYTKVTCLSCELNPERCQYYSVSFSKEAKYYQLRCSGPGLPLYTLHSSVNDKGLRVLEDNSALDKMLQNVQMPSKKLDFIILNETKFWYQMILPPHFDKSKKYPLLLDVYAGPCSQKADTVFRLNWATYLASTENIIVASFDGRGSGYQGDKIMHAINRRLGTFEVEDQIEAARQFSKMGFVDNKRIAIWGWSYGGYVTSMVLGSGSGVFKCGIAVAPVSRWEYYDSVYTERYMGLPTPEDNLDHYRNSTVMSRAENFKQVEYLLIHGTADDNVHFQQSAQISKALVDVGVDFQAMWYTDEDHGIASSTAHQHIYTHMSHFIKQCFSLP
Action: inhibitor

| SMILES | assay | setting | endpoint | value |
| --- | --- | --- | --- | --- |
| NC(CC(=O)NN=Cc1ccc(Cl)c(Cl)c1)Cc1cc(F)c(F)cc1F (stereo not drawn) | enzyme activity |  | IC50 | 30.8 µM |
| O=C(OC[C@@]1(O)C(=O)C=C[C@@H](OC(=O)c2ccccc2)[C@@H]1O)c1ccccc1 | enzyme activity |  | IC50 | 15.7 µM |
| Cn1c(=O)c(=O)n(C)c2cc(S(=O)(=O)Nc3ccc(S(=O)(=O)Nc4nccs4)cc3)ccc21 | enzyme activity, fluorescence |  | IC50 | 0.00093 µM |
| CCC1(CC)C(=O)N(c2cccc(CN3CCN(c4cc(C)nc5ccc(Br)cc45)CC3)c2)C1=O | cell-free assay |  | IC50 | 2.7 µM |
| N[C@@H](CC(=O)N/N=C/c1ccc(F)c(F)c1)Cc1cc(F)c(F)cc1F | enzyme activity |  | IC50 | 5.08 µM |
| N#C[C@@H]1CCCN1C(=O)CNC(=O)c1ccnc2ccc(/C=C/C(=O)NCc3cn(CCOCCOCCOCCNC(=O)CCCC[C@@H]4SC[C@@H]5NC(=O)N[C@@H]54)nn3)cc12 | enzyme activity, fluorescence | with preincubation | IC50 | > 100 µM |
| O=c1c2c(O)cc(O)cc2oc2oc3cc(O)ccc3c12 | enzyme activity |  | Ki | 35.1 µM |
| COc1cc(/C=C/C(=O)OC[C@H]2O[C@H](O[C@]3(CO)O[C@H](CO)[C@@H](O)[C@@H]3OC(=O)/C=C/c3ccc(O)c(OC)c3)[C@H](O)[C@@H](O)[C@@H]2O)ccc1O | enzyme activity |  | IC50 | 46.2 µM |
| Cn1c(=O)c(=O)n(C)c2cc(S(=O)(=O)NNC(=S)Nc3ccccc3)ccc21 | enzyme activity, fluorescence |  | IC50 | 4.9e-05 µM |
| NCC(=O)NCC(=O)N[C@@H](Cc1ccccc1)C(=O)O | enzyme activity, absorbance |  | IC50 | 570 µM |
| Cn1c(=O)c(=O)n(C)c2cc(S(=O)(=O)Nc3ccc(S(=O)(=O)Nc4ccccn4)cc3)ccc21 | enzyme activity, fluorescence |  | IC50 | 0.00048 µM |
| Cc1cc(O)c(C=O)c2c1C(=O)Oc1c(CO)c(O)c3c(c1O2)C(O)OC3=O (stereo not drawn) | enzyme activity |  | IC50 | 0.161 µM |
